Assay results gathered from unrelated publications.
A part holds a random share of what one study measured. Values joined by “and” are separate records of one study, mostly repeats; a detail may differ.
Sequence of UniProt O43293 (whole entry, looked up): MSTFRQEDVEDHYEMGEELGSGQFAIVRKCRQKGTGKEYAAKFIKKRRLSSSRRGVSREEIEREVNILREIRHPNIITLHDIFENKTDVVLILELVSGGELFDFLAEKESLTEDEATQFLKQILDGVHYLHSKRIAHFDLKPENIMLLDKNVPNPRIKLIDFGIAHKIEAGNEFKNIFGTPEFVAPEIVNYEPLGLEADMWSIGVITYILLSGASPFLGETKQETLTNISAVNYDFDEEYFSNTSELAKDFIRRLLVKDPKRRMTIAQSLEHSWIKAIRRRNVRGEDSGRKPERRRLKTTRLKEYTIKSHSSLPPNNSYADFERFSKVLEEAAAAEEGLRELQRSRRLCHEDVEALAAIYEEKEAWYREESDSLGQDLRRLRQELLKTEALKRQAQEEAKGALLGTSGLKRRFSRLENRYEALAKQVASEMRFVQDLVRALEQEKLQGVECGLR
Sequence of UniProt P45985 (whole entry, looked up): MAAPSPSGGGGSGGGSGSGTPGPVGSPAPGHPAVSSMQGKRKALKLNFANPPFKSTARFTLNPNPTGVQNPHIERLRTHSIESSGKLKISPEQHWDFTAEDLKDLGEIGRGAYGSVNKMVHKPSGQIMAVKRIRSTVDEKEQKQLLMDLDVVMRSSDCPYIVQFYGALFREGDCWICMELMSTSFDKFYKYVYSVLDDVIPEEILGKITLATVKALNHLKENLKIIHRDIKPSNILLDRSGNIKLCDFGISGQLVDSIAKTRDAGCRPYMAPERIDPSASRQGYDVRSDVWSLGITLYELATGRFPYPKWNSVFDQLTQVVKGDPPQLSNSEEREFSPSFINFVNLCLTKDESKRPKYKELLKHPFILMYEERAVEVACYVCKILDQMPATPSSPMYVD
Sequence of UniProt P42685 (whole entry, looked up): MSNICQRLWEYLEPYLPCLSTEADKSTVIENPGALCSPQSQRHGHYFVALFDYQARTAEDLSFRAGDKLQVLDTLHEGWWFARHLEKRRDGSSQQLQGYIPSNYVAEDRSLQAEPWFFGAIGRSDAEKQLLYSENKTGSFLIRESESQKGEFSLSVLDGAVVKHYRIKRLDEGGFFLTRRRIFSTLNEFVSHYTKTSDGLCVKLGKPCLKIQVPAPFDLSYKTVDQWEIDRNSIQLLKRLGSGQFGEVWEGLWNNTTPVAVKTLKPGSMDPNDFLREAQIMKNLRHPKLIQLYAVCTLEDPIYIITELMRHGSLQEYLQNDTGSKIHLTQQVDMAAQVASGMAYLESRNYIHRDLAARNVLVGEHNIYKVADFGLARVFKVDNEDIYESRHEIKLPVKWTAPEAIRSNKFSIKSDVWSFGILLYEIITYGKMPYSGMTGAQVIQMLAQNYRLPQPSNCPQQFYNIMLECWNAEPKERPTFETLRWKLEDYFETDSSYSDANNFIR
Sequence of UniProt Q9BUB5 (whole entry, looked up): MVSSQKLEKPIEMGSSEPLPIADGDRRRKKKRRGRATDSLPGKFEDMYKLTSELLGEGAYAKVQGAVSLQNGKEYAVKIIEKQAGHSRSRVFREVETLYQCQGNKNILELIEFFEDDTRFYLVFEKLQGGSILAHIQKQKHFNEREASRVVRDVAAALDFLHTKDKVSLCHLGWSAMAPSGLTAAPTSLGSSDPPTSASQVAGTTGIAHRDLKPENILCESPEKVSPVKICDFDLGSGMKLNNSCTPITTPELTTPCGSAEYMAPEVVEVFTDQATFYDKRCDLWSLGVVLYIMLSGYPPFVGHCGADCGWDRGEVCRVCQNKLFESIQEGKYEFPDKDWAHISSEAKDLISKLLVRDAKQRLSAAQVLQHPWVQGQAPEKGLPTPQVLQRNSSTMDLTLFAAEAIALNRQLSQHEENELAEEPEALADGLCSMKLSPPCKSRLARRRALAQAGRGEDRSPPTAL
Sequence of UniProt P46734 (whole entry, looked up): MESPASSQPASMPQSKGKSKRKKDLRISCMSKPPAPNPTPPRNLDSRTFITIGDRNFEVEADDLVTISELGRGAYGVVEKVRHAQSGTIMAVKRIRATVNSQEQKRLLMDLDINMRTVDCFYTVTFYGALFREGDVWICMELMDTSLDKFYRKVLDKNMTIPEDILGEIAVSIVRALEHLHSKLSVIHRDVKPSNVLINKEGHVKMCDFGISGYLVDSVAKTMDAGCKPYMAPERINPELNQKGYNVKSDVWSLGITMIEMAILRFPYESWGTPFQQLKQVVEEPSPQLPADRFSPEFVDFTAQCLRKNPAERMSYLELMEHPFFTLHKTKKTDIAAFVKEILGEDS
Sequence of UniProt O43683 (whole entry, looked up): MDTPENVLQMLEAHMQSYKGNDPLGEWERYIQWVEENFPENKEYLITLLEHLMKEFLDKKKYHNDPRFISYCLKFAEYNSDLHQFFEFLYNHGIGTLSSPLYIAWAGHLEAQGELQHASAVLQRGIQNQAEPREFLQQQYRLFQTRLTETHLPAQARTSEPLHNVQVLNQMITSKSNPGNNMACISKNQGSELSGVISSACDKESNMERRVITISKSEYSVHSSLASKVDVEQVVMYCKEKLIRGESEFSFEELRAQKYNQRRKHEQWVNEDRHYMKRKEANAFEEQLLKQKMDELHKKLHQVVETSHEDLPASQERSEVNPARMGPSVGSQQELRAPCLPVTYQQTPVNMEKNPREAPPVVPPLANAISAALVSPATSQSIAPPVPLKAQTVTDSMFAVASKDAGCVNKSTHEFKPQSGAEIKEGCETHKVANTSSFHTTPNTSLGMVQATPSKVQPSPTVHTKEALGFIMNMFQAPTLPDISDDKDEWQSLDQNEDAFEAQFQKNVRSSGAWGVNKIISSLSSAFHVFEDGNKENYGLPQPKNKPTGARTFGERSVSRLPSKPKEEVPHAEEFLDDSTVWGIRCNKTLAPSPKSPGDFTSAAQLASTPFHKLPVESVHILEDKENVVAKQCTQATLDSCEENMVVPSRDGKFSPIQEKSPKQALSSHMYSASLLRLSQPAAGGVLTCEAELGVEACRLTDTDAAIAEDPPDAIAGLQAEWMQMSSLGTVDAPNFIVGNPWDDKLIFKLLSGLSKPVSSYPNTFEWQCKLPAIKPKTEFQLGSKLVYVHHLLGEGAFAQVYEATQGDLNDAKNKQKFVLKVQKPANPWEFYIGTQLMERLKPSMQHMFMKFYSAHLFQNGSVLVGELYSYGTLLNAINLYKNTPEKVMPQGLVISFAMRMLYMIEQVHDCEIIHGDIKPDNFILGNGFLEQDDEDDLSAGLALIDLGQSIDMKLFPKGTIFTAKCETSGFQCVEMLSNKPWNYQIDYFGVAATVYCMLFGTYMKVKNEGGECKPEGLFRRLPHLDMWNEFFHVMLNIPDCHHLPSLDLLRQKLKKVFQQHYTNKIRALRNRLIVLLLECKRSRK

Study 1
Compound: CC[C@@]1(c2cccc(C(F)(F)F)c2)C2=C(Nc3n[nH]cc31)[C@H](F)C(C)(C)CC2=O (single isomer, unassigned)
Concentration: 1 µM
target	read-out	method	relative to	remaining binding
MAP2K3 (Homo sapiens, UniProt P46734)	binding	competition with immobilised ligand		80%
EPHA6 (Homo sapiens, UniProt Q9UF33)	binding	competition with immobilised ligand		100%
MKNK1 (Homo sapiens, UniProt Q9BUB5)	kinase binding	KINOMEscan	DMSO control	100%
NEK11 (Homo sapiens, UniProt Q8NG66)	binding	competition with immobilised ligand		87%
MAP4K1 (Homo sapiens, UniProt Q92918)	binding	competition with immobilised ligand		58%
MAP2K7 (Homo sapiens, UniProt O14733)	kinase binding	KINOMEscan	DMSO control	100%
Tyrosine-protein kinase ABL1, phosphorylated (ABL1, Homo sapiens, UniProt P00519, F317I)	binding	competition with immobilised ligand		84%
FRK (Homo sapiens, UniProt P42685)	kinase binding	KINOMEscan	DMSO control	75%
RET (Homo sapiens, UniProt P07949, V804M)	kinase binding	KINOMEscan	DMSO control	100%
ACVR1B (Homo sapiens, UniProt P36896)	kinase binding	KINOMEscan	DMSO control	100%
BUB1 (Homo sapiens, UniProt O43683)	binding	competition with immobilised ligand		100%
MAP2K4 (Homo sapiens, UniProt P45985)	kinase binding	KINOMEscan	DMSO control	100%
MET (Homo sapiens, UniProt P08581, M1250T)	binding	competition with immobilised ligand		99%
STK16 (Homo sapiens, UniProt O75716)	binding	competition with immobilised ligand		90%
Cyclin-dependent kinase 4, with cyclin D1 (CDK4, Homo sapiens, UniProt P11802)	binding	competition with immobilised ligand		90%
CSNK1D (Homo sapiens, UniProt P48730)	kinase binding	KINOMEscan	DMSO control	93%
MAPK9 (Homo sapiens, UniProt P45984)	binding	competition with immobilised ligand		73%
ZAP70 (Homo sapiens, UniProt P43403)	binding	competition with immobilised ligand		100%
DAPK3 (Homo sapiens, UniProt O43293)	kinase binding	KINOMEscan	DMSO control	94%

Study 2
Cell line: MDA-MB-468
Read-out: cell viability
Method: CellCounting-Lite
Concentration: 2.743 nM
Temperature: 37 °C
Direction: higher = more viable cells
SMILES	luminescence signal
CCn1cnc2c(NCc3nc4cc(Cl)c(Cl)cc4[nH]3)nc(N3CCN(C(=O)c4ccccn4)CC3)nc21	220000 a.u. and 262000 a.u. and 294000 a.u.
CCn1cnc2c(NCc3nc4ccc(F)c(F)c4[nH]3)nc(N3CCn4ncnc4C3)nc21	497000 a.u. and 451000 a.u. and 545000 a.u.
CCn1cnc2c(NCc3nc4cc(Cl)c(Cl)cc4[nH]3)nc(N3CCN(C(C)=O)CC3)nc21	334000 a.u. and 350000 a.u. and 333000 a.u.
CC(=O)N1CCN(c2nc(NCc3nc4cc(Cl)c(Cl)cc4[nH]3)c3ncn(C)c3n2)CC1	459000 a.u. and 443000 a.u. and 511000 a.u.
CCn1cnc2c(NCc3nc4cc(Cl)c(Cl)cc4[nH]3)nc(N3CCN(S(C)(=O)=O)CC3)nc21	527000 a.u. and 480000 a.u. and 478000 a.u.
CCn1cnc2c(NCc3nc4cc(Cl)c(Cl)cc4[nH]3)nc(N3CCN(C(=O)c4cccnc4)CC3)nc21	277000 a.u. and 227000 a.u. and 205000 a.u.
CCn1cnc2c(NCc3nc4cc(Cl)c(Cl)cc4[nH]3)nc(N3CCN(C(=O)[C@H](C)NC(C)=O)CC3)nc21	538000 a.u. and 530000 a.u. and 504000 a.u.
CCn1cnc2c(NCc3nc4cc(Cl)c(Cl)cc4[nH]3)nc(N3CCn4ncnc4C3)nc21	421000 a.u. and 431000 a.u. and 491000 a.u.
CCCCOc1nc(NCc2nc3cc(Cl)c(Cl)cc3[nH]2)c2ncn(CC)c2n1	463000 a.u. and 530000 a.u. and 506000 a.u.
CC(=O)N1CCN(c2nc(NCc3nc4cc(Cl)c(Cl)cc4[nH]3)c3ncn(C(C)C)c3n2)CC1	424000 a.u. and 502000 a.u. and 510000 a.u.

Study 3
SMILES: CCN1/C(=C/C=C2\CCCC(/C=C/C3=[N+](CC)c4ccccc4C3(C)C)=C2NCCCCCCCCN2CCC(Nc3nc4ccccc4n3Cc3ccc(F)cc3)CC2)C(C)(C)c2ccccc21
Cell line: U-87 MG
Concentration: concentration not given
Relative to: DMSO
item	log2 fold change
PDS5B mRNA	-0.934
ARL15 mRNA	0.983
CD274 mRNA	1.84
RGS7 mRNA	1.76
CXCL2 mRNA	2.51
BEX2 mRNA	2.57
SLC38A1 mRNA	1.63
CACHD1 mRNA	1.32
CAMK2N2 mRNA	-0.815
FMNL1 mRNA	-0.848
TRAM2 mRNA	-2
CXCL8 mRNA	3.69
WNT3 mRNA	-1.08
METTL7A mRNA	-3.62
DDX3Y mRNA	1.68
GTPBP2 mRNA	1.04

Study 4
SMILES: C[C@@H]1CN(c2ccc(-c3cc(C(=O)NCCOCCOCCOCCOCCNC(=O)/C=C/c4[nH]cc(C(=O)N[C@@H](CC(N)=O)c5ccc(F)c(Cl)c5)c4-c4ccc(Cl)cc4F)ccc3F)cc2NC(=O)c2c[nH]c(=O)cc2C(F)(F)F)C[C@H](C)N1C
Read-out: thermal unfolding
Method: differential scanning fluorimetry
Concentration: 5.5 µM
Direction: higher = more unfolded
DCAF1: DDB1- and CUL4-associated factor 1 (DCAF1, Homo sapiens, UniProt Q9Y4B6)
Sequence of UniProt Q9Y4B6 (whole entry, looked up): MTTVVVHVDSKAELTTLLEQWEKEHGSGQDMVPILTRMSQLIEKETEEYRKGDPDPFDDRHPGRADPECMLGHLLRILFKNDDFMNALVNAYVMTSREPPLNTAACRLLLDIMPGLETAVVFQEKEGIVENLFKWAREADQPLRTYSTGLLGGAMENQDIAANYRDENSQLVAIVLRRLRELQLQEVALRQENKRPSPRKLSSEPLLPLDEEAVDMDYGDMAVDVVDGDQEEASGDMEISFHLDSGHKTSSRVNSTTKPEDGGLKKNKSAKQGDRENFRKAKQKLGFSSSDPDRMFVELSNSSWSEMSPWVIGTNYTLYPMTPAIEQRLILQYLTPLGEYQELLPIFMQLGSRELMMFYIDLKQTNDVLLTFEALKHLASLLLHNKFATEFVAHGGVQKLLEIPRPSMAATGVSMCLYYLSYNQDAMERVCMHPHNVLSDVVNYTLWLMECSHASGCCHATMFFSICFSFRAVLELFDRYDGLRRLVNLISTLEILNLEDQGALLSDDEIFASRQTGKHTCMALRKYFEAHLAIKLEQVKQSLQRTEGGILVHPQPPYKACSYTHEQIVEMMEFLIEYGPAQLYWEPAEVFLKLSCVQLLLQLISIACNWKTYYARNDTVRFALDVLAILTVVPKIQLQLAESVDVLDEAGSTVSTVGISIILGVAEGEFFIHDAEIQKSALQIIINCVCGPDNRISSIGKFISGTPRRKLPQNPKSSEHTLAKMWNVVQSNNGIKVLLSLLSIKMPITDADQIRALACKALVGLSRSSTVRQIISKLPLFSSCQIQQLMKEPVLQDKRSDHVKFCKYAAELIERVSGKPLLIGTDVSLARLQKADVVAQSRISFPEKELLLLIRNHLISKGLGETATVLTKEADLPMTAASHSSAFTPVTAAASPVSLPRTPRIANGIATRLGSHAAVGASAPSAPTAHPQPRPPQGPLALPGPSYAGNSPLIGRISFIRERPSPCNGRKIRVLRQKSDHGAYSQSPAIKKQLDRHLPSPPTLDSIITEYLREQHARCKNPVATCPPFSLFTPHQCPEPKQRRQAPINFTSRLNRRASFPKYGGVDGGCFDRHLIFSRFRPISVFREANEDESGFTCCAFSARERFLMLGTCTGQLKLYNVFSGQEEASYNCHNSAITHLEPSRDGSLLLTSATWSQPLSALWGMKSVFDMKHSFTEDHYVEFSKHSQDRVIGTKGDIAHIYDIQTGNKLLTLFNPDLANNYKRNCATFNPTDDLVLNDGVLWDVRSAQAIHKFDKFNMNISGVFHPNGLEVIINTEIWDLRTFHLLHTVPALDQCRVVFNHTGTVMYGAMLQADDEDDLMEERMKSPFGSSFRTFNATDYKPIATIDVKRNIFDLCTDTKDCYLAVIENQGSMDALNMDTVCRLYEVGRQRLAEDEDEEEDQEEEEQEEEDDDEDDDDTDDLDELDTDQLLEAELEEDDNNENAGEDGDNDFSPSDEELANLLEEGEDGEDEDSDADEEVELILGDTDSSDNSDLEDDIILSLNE
WDR5: WD repeat-containing protein 5 (WDR5, Homo sapiens, UniProt P61964)
target	temperature	SYPRO Orange fluorescence [a.u.]
DCAF1	26.6 °C	8890
DCAF1	61.81 °C	49200
WDR5	61.81 °C	15000
WDR5	57.61 °C	16400
DCAF1	93.21 °C	31400
DCAF1	75.61 °C	49300
DCAF1	84.01 °C	41300
DCAF1	54.61 °C	20700
WDR5	69.61 °C	15700
WDR5	76.41 °C	29400
WDR5	35 °C	13200

Repeated from above (study 1):
target	read-out	method	relative to	remaining binding
EPHA6 (Homo sapiens, UniProt Q9UF33)	binding	competition with immobilised ligand		100%
MKNK1 (Homo sapiens, UniProt Q9BUB5)	kinase binding	KINOMEscan	DMSO control	100%
NEK11 (Homo sapiens, UniProt Q8NG66)	binding	competition with immobilised ligand		87%
MAP4K1 (Homo sapiens, UniProt Q92918)	binding	competition with immobilised ligand		58%
MAP2K7 (Homo sapiens, UniProt O14733)	kinase binding	KINOMEscan	DMSO control	100%
Tyrosine-protein kinase ABL1, phosphorylated (ABL1, Homo sapiens, UniProt P00519, F317I)	binding	competition with immobilised ligand		84%
FRK (Homo sapiens, UniProt P42685)	kinase binding	KINOMEscan	DMSO control	75%
RET (Homo sapiens, UniProt P07949, V804M)	kinase binding	KINOMEscan	DMSO control	100%
ACVR1B (Homo sapiens, UniProt P36896)	kinase binding	KINOMEscan	DMSO control	100%
